# Measurements of several laboratories.
# A part holds a random share of what one study measured. Substitutions count along the parent as printed.

# Sample 1
# Target: Interferon regulatory factor 7, full length, phosphomimetic (IRF7, Homo sapiens, UniProt Q92985, residues 1-503, S471D/S472D/S475D/S476D/S477D/S483D/S484D/S487D)
# Method: protein-binding microarray
# Molecule type: double-stranded DNA, one strand shown
# Sample: in vitro
# Tested at: 2200 nM top
# Notes: 60-bp whole probe
# Added: salmon DNA 0.4 mg/ml
# Baseline: random background probes
# Reading: higher = stronger binding
# Constant ends, left off below: GCCTAGCAC … GTCTTGATTCGCTTGACGCTGCTG
# Target sequence (chain): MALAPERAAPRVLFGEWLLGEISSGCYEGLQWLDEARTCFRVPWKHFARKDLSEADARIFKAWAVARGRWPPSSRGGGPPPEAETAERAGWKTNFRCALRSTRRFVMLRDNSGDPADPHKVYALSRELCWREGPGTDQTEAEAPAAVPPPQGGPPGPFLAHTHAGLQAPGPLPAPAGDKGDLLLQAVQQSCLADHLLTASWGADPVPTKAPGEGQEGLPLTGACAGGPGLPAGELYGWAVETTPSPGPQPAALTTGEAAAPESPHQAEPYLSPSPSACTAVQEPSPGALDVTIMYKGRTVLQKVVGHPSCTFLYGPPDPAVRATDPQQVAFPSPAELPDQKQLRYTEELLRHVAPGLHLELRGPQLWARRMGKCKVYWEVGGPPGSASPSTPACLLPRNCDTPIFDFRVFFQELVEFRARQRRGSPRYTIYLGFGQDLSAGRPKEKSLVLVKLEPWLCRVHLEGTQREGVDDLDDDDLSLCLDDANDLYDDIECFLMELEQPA
Strand,fitted relative affinity [z-score]
GACGATTTCAGTTTCGAGACGTGCTAG,5.68
TCAGGTTTACCAGATCATCTGGTGCTA,0.48
GACGATATCCTTTTCCTGACGTGCTAG,1.52
GAAGATATCGGGACTGGAGACGTGCTA,-0.275
GACGAACTGAGTCTCGTGACGTGCTAG,0.203
ATTGTTTCCTTCCTCTTTTAGTGCTAG,3.75
GTGACAGTTTTATTTTAGTTGGTGCTA,1.04
GACGATATCGGGACTGGAGAAGTGCTA,-0.303
GACGGTCTCGTACTGCTGACGTGCTAG,0.271
TCTGCTTTGCCTTCAGCCCGGTGCTAG,0.951
GACGAACTGGGGTATCGAGACGTGCTA,0.203
TCAGTTATAATATTATTACTGTGCTAG,0.222
TTAGGTATCGGGACTCGGTTAGTGCTA,0.486
GACGGTCTCCTTATCCAGACGTGCTAG,0.839
TCTCTGTTCTTTTCAGTCCCGTGCTAG,2.76
GAAGAACTGAGACTGGAGACGTGCTAG,-0.789
CTTCCTCTTTCACTGGTCCTGTGCTAG,3.3
AAGGTTATCCATCTCAAGTAGTGCTAG,0.179

# Sample 2
# Target: CEP164, C-terminal peptide (human)
# Method: DHFR complementation, deep sequencing
# Sample: yeast
# Notes: single substitutions, model-inferred values
# Baseline: wild type
# Reading: higher = weaker binding
# Starting sequence: PDZK1, PDZ domain 2 (human); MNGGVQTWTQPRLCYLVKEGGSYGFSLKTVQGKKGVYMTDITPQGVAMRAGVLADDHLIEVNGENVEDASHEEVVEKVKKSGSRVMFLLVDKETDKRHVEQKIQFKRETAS; partner HNRVKVYRF
Substitution,binding free energy change
Y15R,0.123 kcal/mol
D91R,-0.0297 kcal/mol
V90S,-0.222 kcal/mol
K102D,-0.0476 kcal/mol
E60W,0.503 kcal/mol
Y15F,-0.0669 kcal/mol
D68E,-0.0426 kcal/mol
L53Y,0.0818 kcal/mol
V85D,2.24 kcal/mol
N2S,-0.131 kcal/mol
A50Y,0.563 kcal/mol
R107S,-0.142 kcal/mol
L89S,1.06 kcal/mol
T39C,-0.55 kcal/mol
K34T,0.209 kcal/mol
H57Q,-0.371 kcal/mol
E64K,0.138 kcal/mol
S70Q,-0.0466 kcal/mol

# Sample 3
# Target: CCND3, cyclin fold, Cln2 fusion (human)
# Method: yeast growth competition, sequencing
# Sample: yeast
# Notes: weak parent motif
# Baseline: not given
# Reading: higher = stronger binding
# Starting sequence: RB1 docking peptide (human); PKPLKKLRFDIEG; partner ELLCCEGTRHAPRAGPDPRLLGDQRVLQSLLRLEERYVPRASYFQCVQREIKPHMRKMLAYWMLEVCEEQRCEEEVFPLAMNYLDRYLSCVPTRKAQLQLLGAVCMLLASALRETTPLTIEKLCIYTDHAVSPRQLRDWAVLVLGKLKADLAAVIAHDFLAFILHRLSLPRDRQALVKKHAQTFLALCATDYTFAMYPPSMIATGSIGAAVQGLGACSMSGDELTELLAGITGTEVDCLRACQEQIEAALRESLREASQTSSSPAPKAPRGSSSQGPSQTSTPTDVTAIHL
Substitution,normalised enrichment score
PKPLKKLRFIIEG [D10I],-0.0665
PKPLKKLRFDREG [I11R],-0.0685
PKPLKKLRFDHEG [I11H],0.147
PKPQKKLRFDIEG [L4Q],0.0816
PKPLKKLLFDIEG [R8L],0.11
PKPLVKLRFDIEG [K5V],0.112
PKPLKKLRFDIER [G13R],0.225
PKPLKKLRFDIGG [E12G],0.181
PKPLKKLRMDIEG [F9M],0.104
PKPLKKLRFRIEG [D10R],0.159
RKPLKKLRFDIEG [P1R],0.17
PKPLTKLRFDIEG [K5T],0.14
PKPLKKLRFDISG [E12S],0.165
PKPPKKLRFDIEG [L4P],0.0863
PKPLKKLRGDIEG [F9G],0.24
PKRLKKLRFDIEG [P3R],0.35
PKPLKKLRIDIEG [F9I],0.0444
QKPLKKLRFDIEG [P1Q],0.125
PKVLKKLRFDIEG [P3V],-0.000349
PKPLKKLRFPIEG [D10P],0.166
PKPLHKLRFDIEG [K5H],0.129
PKPLLKLRFDIEG [K5L],0.135
PKPLKKLRFDIHG [E12H],0.0282
PKPLKDLRFDIEG [K6D],0.168
PKPLKKLRFDIAG [E12A],0.0182

# Sample 4
# Target: Fragile X messenger ribonucleoprotein 1, C-terminal low-complexity region (Fmr1, Mus musculus, UniProt P35922)
# Method: RNA Bind-n-Seq
# Molecule type: RNA
# Sample: in vitro
# Tested at: 200 nM
# Notes: whole 134-nt RNA, ends assumed
# Added: 150 mM LiCl
# Baseline: input library
# Reading: higher = stronger binding
# Each molecule: 7-deaza-guanosine replaces G
Strand,log2 enrichment
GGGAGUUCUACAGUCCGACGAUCAAGUCCUGUGCUACACAUCGUAUGUACCGAAUCGGGGAAAAGGAAAAGGGAAAAGGGAAAGUAUUAUGUUACGCCGUUCGGAUCUGCACUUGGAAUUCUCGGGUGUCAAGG,0.015
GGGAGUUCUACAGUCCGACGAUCGCAGGAAGUAAAAACAAAUGGAAAUGCUUCGGAUAGUGGCAGGAGUGGGGGUUGCUAAGGAAAGGGUGGGAUGGGAGUGGGUAAAGAGUUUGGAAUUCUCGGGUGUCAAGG,1.7
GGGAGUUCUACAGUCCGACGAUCACCAUGCAGGUGGGCAUCUUUGGGAAGUGGGGCAAGGGGGGGAUAGGGAGGGGGGUAACAAUUUGGGAACAGGUGGUCCCAGGUCGUUUCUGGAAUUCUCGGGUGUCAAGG,0.992
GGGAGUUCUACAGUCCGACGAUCCUCAAGUCCUGUGCUACACAUCGUAUGUACCGAAUCGGAGGUUUUUUUGGUGGAAAGUAUUAUGUUACGCCGUUCGGAUCUGCACUUCCAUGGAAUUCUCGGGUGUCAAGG,-0.787
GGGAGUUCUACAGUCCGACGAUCUCAAGUCCUGUGCUACACAUCGUAUGUACCGAAUCGGGGUUGGGUUGGUUGGGGAAAGUAUUAUGUUACGCCGUUCGGAUCUGCACUUCCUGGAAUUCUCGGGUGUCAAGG,-0.368
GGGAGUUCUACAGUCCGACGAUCUCCUCAAGUCCUGUGCUACACAUCGUAUGUACCGAAUCGGGUGGUGGGGUGGAAAGUAUUAUGUUACGCCGUUCGGAUCUGCACUUCCAGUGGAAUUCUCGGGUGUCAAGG,-0.116
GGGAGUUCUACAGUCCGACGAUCUCCUGUGCUACACAUCGUAUGUACCGAAUCGGGGUUUUUGGUUUUUGGGGUUUUUGGGGAAAGUAUUAUGUUACGCCGUUCGGAUCUGCAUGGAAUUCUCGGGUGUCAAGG,-1.25
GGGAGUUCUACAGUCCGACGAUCAGUCCUGUGCUACACAUCGUAUGUACCGAAUCGGAAAAAGGUUUUUGGAAAAAAAGGAAAGUAUUAUGUUACGCCGUUCGGAUCUGCACUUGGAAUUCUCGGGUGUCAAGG,-2.47
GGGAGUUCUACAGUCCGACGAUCCAAGUCCUGUGCUACACAUCGUAUGUACCGAAUCGGGGAAAGGGGAAAGGAAAGGAAAGUAUUAUGUUACGCCGUUCGGAUCUGCACUUCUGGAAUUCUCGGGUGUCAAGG,-0.184
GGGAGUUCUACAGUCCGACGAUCUGCUGUGCAGCGGCAUCGGCCCACUGUGGUGGAAUGUCUACGGGAAACUGAUGCCUCCCUCAGCCGGUGAGCAGUGAUAGAGGGGACAGGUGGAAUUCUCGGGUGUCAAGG,-1.38
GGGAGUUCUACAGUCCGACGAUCCAAGUCCUGUGCUACACAUCGUAUGUACCGAAUCGGAAAGGGGAAAGGGGAAAGGGAAAGUAUUAUGUUACGCCGUUCGGAUCUGCACUUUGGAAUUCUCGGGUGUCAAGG,-0.474

# Sample 5
# Target: ABI1, truncated, D143A, DHFR fusion (Arabidopsis thaliana)
# Method: DHFR PCA, deep sequencing
# Sample: yeast
# Notes: methotrexate growth selection, single substitutions
# Added: (+)-ABA 58 µM
# Baseline: wild-type fitted maximum
# Reading: higher = stronger binding
# Starting sequence: PYL1, truncated, DHFR fusion (Arabidopsis thaliana); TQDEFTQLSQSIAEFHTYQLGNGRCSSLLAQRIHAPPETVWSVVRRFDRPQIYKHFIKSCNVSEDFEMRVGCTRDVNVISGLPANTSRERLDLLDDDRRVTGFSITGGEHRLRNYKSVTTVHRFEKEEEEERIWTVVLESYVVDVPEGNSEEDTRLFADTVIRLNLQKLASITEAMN
Substitution,relative binding score [%]
D97R,85.4
E127C,91.6
M68I,86
Q10C,84.6
R98T,68.3
L156K,64.1
F15P,-16.7
S104R,44
S63A,91.5
R123K,96.5
V40F,-12.5
A13I,77.4
D48C,8.83
R46P,-7.59
F47M,-1.39
R88N,78.6
I33G,-10.5
D95G,4.86
V44W,-0.884
E4Y,86.4
P36M,75.8
E38S,78
E174D,50.4
D3Y,82.1
C72E,76.6

# For quick reference, copied from above (sample 5):
Substitution,relative binding score [%]
D97R,85.4
E127C,91.6
M68I,86
Q10C,84.6
R98T,68.3
L156K,64.1
F15P,-16.7
